Published values collected from several papers.
Each line is one published result; not all experiments were run side by side. Converted amounts (≈) assume the structure as drawn.
Sequence of UniProt Q08345 (whole entry, looked up): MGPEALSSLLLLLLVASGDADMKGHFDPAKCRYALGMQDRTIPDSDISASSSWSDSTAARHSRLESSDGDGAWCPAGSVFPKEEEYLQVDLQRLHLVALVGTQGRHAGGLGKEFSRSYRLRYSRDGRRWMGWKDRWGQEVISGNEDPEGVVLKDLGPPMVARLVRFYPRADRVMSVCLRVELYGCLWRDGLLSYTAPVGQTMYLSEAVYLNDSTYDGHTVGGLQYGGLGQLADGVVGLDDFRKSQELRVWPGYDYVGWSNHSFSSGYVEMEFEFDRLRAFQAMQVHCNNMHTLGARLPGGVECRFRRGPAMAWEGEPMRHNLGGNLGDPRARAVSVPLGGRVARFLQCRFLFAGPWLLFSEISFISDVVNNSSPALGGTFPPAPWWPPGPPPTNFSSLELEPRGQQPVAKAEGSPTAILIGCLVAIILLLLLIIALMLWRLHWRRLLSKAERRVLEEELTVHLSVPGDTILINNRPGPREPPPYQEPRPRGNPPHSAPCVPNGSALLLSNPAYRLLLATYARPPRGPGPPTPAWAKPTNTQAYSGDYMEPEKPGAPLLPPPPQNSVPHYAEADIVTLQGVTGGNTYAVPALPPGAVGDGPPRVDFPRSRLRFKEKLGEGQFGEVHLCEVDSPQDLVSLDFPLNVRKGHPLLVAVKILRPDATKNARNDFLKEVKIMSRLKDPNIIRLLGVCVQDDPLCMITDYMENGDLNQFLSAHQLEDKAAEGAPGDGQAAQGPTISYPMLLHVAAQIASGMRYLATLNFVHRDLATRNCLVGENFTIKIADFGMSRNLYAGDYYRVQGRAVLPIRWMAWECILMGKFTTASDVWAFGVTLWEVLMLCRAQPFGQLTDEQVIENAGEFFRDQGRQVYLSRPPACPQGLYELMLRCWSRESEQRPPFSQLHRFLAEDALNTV

Compound	target or system	test	test system	setting	quantity	result
Cc1cccc(NC(=O)c2sc3nc(-c4ccc5c(c4)OCO5)cc(C(F)(F)F)c3c2N)c1C	Mycobacterium tuberculosis	microbial growth	H37RV		IC50	0.86 µM
COC(=O)c1cc(-c2cccc(NC(=O)Nc3c(C)cccc3C)c2)on1	Pseudomonas aeruginosa	microbial growth, broth dilution	ATCC27853		MIC	> 64 µg/mL
O=c1cc(CSc2ccc(N=Cc3cccc(Cl)c3)cc2)occ1O		DPPH scavenging, absorbance		30 min	IC50	97.5 µM
COC1CN(C(=O)c2sc3nc(-c4ccccc4)ccc3c2N)C1	Mycobacterium tuberculosis	microbial growth	H37RV		IC50	31 µM
CN1C(=O)C(C2C3=C(CC(C)(C)CC3=O)Oc3c(O)cccc32)C(=O)N(C)C1=O (stereo not drawn)	3T3-L1	cell growth or viability, MTT		72 h	IC20	27.4 µg/mL (≈ 68.8 µM)
COc1ccc(-c2cc(C(F)(F)F)c3c(N)c(C(=O)Nc4cccc(C)c4F)sc3n2)cc1	Mycobacterium tuberculosis	microbial growth	H37RV		IC50	> 100 µM
[2H]c1c([2H])c([C@]2([2H])CCCN2C(=O)C(C)(C)Oc2ccc3cn[nH]c3c2)c([2H])c([2H])c1C([2H])([2H])[2H]	Epithelial discoidin domain-containing receptor 1 (DDR1, Homo sapiens, UniProt Q08345)	binding, competition with immobilised ligand		1 µM	remaining binding	85%
O=c1cc(OCCCOc2ccnc(SCc3ccc(F)cc3)n2)c2cc(F)ccc2o1	Human coronavirus 229E	cytopathic effect	A549	1.56 µM	inhibition	8.05%
O=c1cc(CSc2ccc(N=Cc3ccccc3Br)cc2)occ1O		DPPH scavenging, absorbance		30 min	IC50	66.9 µM
COc1cnc(OC)n2nc(NS(=O)(=O)c3c(OCC(F)F)cccc3C(F)(F)F)nc12	HaCaT	cell growth or viability, CCK-8		12.5 µM, 72 h	inhibition	0.54%
COC(=O)c1cc(-c2cccc(NC(=S)Nc3cc(C(F)(F)F)cc(C(F)(F)F)c3)c2)on1	Mycobacteroides chelonae	microbial growth, broth dilution	ATCC35752	48 h	MIC	> 64 µg/mL
CCOC(=O)C1=C[C@@H](OC(CC)CC)[C@H](NC(C)=O)[C@@H](N)C1	Human coronavirus 229E	cytopathic effect	A549	100 µM	inhibition	82%
O=c1cc(CSc2ccc(N=Cc3ccccc3F)cc2)occ1O		DPPH scavenging, absorbance		30 min	IC50	52.2 µM
COc1c(N2CC3CCCNC3C2)c(F)cc2c(=O)c(C(=O)OCc3cnc([N+](=O)[O-])s3)cn(C3CC3)c12 (stereo not drawn)	Mycolicibacterium fortuitum	microbial growth	ATCC6841		MIC	0.12 µM
Nc1ncnc2c([C@@H]3N[C@H](CO)[C@@H](O)[C@H]3O)c[nH]c12	unidentified influenza virus	viral replication, inhibitor	MDCK	9.5 µM	inhibition	30.3%
COc1ccc(-c2cc(C(F)(F)F)c3c(N)c(C(=O)NC4CC4)sc3n2)cc1	Mycobacterium tuberculosis	microbial growth	H37RV		IC50	> 100 µM
N.N.[Cl][Pt][Cl]	SUP-B15	cell growth or viability, ATP luminescence		10 µM, 72 h	inhibition	98%

Compound	target or system	test	test system	setting	quantity	result
O=c1cc(CSc2ccc(N=Cc3ccc(F)cc3)cc2)occ1O		DPPH scavenging, absorbance		30 min	IC50	43.7 µM
COc1ccc(-c2cc(C(F)(F)F)c3c(N)c(C(=O)NC4CC5(C4)CN(C(=O)OC(C)(C)C)C5)sc3n2)cc1	Mycobacterium tuberculosis	microbial growth	H37RV		IC50	> 50 µM
Cc1cccc(CSc2nccc(OCCOc3cc(=O)oc4ccccc34)n2)c1	Human coronavirus 229E	cytopathic effect	A549	6.25 µM	inhibition	31.7%
COc1ccccc1C=Nc1ccc(SCc2cc(=O)c(O)co2)cc1		DPPH scavenging, absorbance		30 min	IC50	36.5 µM
COC(=O)c1cc(-c2cccc(NC(=O)Nc3cccc(C(F)(F)F)c3)c2)on1	Pseudomonas aeruginosa	microbial growth, broth dilution	ATCC27853		MIC	> 64 µg/mL
Cc1ccccc1C=Nc1ccc(SCc2cc(=O)c(O)co2)cc1		DPPH scavenging, absorbance		30 min	IC50	21 µM
COC(=O)c1cc(-c2cccc(NC(=O)Nc3ccc(Cl)cc3)c2)on1	Mycobacteroides chelonae	microbial growth, broth dilution	ATCC35752	48 h	MIC	> 64 µg/mL
Nc1c(C(=O)N2CC(F)(F)C2)sc2ncccc12	Mycobacterium tuberculosis	microbial growth	H37RV		IC50	> 100 µM
COC(=O)c1cc(-c2cccc(NC(=S)Nc3cccc(Br)c3)c2)on1	Klebsiella pneumoniae	microbial growth, broth dilution	BAA1705		MIC	> 64 µg/mL
COc1ccc(-c2ccc3c(N)c(C(=O)Nc4cccc(C)c4C)sc3n2)cc1	Mycobacterium tuberculosis	microbial growth	H37RV		IC50	> 100 µM
COC(=O)c1cc(-c2cccc(NC(=O)Nc3ccccc3OC)c2)on1	Pseudomonas aeruginosa	microbial growth, broth dilution	ATCC27853		MIC	> 64 µg/mL
Cc1ccc2c(CNCC3(N4CCCC4)COC3)c[nH]c2c1	A 172	cell growth or viability		30 µM, 48 h	viability	55.6%
COC(=O)c1cc(-c2ccc(NC(=O)Nc3ccc(Cl)c(Cl)c3)cc2)on1	Mycobacteroides chelonae	microbial growth, broth dilution	ATCC35752	48 h	MIC	> 64 µg/mL
CN(C)C(=O)c1sc2ncccc2c1N	Mycobacterium tuberculosis	microbial growth	H37RV		IC50	> 100 µM
COC(=O)c1cc(-c2cccc(NC(=O)Nc3ccc(OC)cc3)c2)on1	Mycobacteroides chelonae	microbial growth, broth dilution	ATCC35752	48 h	MIC	> 64 µg/mL
N.N.[Cl][Pt][Cl]	HeLa	cell growth or viability, MTT			GI50	2640 nM
